Experimental data collected from several papers.
Compare with care: the assays were run in different laboratories. ± marks the error that the study gave.
Chain of UniProt F8G0P2 (whole entry, unmodified, looked up): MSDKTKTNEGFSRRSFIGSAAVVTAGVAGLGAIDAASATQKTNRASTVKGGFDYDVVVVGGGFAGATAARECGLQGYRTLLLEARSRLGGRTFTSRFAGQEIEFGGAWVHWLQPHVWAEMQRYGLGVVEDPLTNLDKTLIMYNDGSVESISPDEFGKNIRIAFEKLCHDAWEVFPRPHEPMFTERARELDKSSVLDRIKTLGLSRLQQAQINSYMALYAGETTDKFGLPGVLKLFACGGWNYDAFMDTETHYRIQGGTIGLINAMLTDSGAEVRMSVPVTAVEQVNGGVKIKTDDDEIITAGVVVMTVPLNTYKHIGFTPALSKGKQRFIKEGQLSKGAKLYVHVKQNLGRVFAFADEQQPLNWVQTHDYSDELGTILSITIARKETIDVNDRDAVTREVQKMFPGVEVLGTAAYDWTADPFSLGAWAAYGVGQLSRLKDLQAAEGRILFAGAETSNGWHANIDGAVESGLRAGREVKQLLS
Chain of UniProt O67572 (whole entry, looked up): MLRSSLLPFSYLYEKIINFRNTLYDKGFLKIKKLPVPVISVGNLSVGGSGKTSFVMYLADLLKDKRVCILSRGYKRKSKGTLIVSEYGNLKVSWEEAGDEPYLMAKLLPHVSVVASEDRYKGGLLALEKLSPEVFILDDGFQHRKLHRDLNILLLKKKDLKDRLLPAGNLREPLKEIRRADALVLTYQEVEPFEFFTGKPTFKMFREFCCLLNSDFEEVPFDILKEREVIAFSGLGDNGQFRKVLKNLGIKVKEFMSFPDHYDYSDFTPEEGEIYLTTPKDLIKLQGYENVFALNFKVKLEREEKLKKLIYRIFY
Chain of UniProt P41146 (whole entry, looked up): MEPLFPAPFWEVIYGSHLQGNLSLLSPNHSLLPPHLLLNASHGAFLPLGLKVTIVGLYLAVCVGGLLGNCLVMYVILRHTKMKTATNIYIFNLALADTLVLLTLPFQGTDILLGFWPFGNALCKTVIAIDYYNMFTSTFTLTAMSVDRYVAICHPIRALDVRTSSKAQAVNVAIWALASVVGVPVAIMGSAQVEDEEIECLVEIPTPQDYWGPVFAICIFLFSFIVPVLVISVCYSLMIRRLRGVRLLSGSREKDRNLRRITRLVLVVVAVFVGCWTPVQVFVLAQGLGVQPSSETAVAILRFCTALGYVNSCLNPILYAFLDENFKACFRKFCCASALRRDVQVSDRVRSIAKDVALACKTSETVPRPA
Chain of UniProt Q9ULI0 (whole entry, looked up): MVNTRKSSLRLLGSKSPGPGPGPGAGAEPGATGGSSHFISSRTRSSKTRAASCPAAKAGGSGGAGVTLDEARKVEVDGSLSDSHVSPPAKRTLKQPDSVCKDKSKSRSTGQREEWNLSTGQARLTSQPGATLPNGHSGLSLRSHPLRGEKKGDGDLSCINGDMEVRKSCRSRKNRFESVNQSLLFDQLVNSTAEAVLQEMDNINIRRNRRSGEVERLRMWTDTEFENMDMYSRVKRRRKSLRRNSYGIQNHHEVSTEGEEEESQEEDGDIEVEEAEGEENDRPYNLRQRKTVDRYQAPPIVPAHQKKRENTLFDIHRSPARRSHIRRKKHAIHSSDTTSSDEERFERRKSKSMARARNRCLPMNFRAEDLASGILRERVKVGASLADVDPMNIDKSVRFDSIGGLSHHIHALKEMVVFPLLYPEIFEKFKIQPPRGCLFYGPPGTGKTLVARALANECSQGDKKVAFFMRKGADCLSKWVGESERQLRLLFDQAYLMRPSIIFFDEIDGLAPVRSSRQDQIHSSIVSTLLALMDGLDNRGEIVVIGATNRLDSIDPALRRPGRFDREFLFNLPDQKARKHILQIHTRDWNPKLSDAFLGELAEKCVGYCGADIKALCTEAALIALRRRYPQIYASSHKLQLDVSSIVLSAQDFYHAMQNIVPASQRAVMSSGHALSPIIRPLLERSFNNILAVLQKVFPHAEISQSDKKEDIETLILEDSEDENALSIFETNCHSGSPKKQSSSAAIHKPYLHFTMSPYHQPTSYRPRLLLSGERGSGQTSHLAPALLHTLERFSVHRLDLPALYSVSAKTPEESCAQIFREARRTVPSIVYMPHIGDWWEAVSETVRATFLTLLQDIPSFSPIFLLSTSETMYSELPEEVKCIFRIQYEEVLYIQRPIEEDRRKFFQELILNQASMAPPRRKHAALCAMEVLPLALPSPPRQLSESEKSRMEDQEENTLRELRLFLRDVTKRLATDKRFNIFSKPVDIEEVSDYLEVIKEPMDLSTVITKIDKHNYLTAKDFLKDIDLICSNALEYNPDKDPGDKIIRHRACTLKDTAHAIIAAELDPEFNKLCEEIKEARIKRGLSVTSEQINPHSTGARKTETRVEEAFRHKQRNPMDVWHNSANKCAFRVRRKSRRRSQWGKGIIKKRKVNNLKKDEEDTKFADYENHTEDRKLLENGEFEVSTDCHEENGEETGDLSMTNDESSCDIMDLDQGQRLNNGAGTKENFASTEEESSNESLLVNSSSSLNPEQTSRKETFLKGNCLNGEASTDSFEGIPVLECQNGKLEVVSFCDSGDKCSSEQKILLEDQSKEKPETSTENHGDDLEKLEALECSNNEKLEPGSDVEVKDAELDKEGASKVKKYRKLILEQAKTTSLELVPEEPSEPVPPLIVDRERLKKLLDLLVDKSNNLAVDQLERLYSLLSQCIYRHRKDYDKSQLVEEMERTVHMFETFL
Chain of UniProt P47871 (whole entry, looked up): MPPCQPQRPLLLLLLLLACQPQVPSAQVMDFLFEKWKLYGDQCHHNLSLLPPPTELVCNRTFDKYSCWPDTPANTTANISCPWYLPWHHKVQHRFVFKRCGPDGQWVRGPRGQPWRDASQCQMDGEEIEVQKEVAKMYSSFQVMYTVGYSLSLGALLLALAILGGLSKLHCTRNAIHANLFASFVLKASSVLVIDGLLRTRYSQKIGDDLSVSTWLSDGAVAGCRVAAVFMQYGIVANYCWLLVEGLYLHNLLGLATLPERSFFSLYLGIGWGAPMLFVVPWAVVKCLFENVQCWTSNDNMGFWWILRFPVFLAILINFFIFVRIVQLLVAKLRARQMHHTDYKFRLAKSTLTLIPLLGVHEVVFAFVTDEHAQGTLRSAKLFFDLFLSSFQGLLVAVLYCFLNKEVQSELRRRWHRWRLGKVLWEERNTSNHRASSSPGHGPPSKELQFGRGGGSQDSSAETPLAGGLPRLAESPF
Chain of UniProt P01317 (whole entry, looked up): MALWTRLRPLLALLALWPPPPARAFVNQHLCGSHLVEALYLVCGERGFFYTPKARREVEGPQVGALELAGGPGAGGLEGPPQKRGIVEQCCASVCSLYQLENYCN

Substance | target or system | test | system | conditions | endpoint | result
glucagon mature, free N-terminus, free C-terminal acid | GCGR (Homo sapiens, UniProt P47871) | CRE luciferase reporter | HEK293 |  | EC50 | 0.03 nM
hdhb G39D/R40L/R41N/T17A (Clostridium sardiniense) | NC(=O)c1ccc[n+]([C@@H]2O[C@H](COP(=O)(O)OP(=O)(O)OC[C@H]3O[C@@H](n4cnc5c(N)ncnc54)[C@H](O)[C@@H]3O)[C@@H](O)[C@H]2O)c1 | steady-state kinetics |  | pH 8, 25 °C, cofactor varied | kcat | 0.75 ± 0.03 s⁻¹
nicA2 (Pseudomonas putida, UniProt F8G0P2) | CN1CCC[C@H]1c1cccnc1 | steady-state kinetics |  | pH 7.4, 22 °C | kcat | 0.00611 ± 0.0022 s⁻¹
Cj1438c (Campylobacter jejuni, UniProt Q0P8H6) | Nc1ncnc2c1ncn2[C@@H]1O[C@H](COP(=O)(O)OP(=O)(O)OP(=O)(O)O)[C@@H](O)[C@H]1O | steady-state kinetics |  | pH 8, 25 °C, apparent | kcat | 2.9 ± 0.1 s⁻¹
enzyme (Aquifex aeolicus, UniProt O67572) | CCCCCCCCCCC[C@@H](O)CC(=O)N[C@H]1[C@H](OC[C@H]2O[C@H](OP(=O)(O)O)[C@H](NC(=O)C[C@H](O)CCCCCCCCCCC)[C@@H](OC(=O)C[C@H](O)CCCCCCCCCCC)[C@@H]2O)O[C@H](CO)[C@@H](O)[C@@H]1OC(=O)C[C@H](O)CCCCCCCCCCC | steady-state kinetics |  | pH 8.5, 30 °C, apparent | kcat | 9.2 ± 0.1 s⁻¹
H2AX fragment, acetyl K9, C-terminal amide | ATAD2B 953-1085 (Homo sapiens, UniProt Q9ULI0) | ITC |  |  | Kd | 90000 nM
dmhA S133T (Campylobacter jejuni) | Nc1nc2c(ncn2[C@@H]2O[C@H](COP(=O)(O)OP(=O)(O)O[C@H]3O[C@H]([C@H](O)CO)[C@@H](O)[C@H](O)[C@@H]3O)[C@@H](O)[C@H]2O)c(=O)[nH]1 | steady-state kinetics |  | pH 7.5, 30 °C | kcat | 0.37 ± 0.01 s⁻¹
insulin | Insulin (INS, Bos taurus, UniProt P01317) | circular dichroism |  | 300 min | β-sheet content | 35.5%
nociceptin | OPRL1 (Homo sapiens, UniProt P41146) | cAMP, agonist, HitHunter cAMP | CHO-K1 |  | EC50 | 0.19 nM
nicA2 T250V/T381V (Pseudomonas putida) | CN1CCC[C@H]1c1cccnc1 | steady-state kinetics |  | pH 7.4, 22 °C | kcat | 0.0259 ± 0.0077 s⁻¹
dmhA Y300F (Campylobacter jejuni) | Nc1nc2c(ncn2[C@@H]2O[C@H](COP(=O)(O)OP(=O)(O)O[C@H]3O[C@H]([C@H](O)CO)[C@@H](O)[C@H](O)[C@@H]3O)[C@@H](O)[C@H]2O)c(=O)[nH]1 | steady-state kinetics |  | pH 7.5, 30 °C | kcat | 0.082 ± 0.002 s⁻¹
hdhb E18D/G39D/R40L/R41N/T17A (Clostridium sardiniense) | NC(=O)c1ccc[n+]([C@@H]2O[C@H](COP(=O)(O)OP(=O)(O)OC[C@H]3O[C@@H](n4cnc5c(N)ncnc54)[C@H](O)[C@@H]3O)[C@@H](O)[C@H]2O)c1 | steady-state kinetics |  | pH 8, 25 °C, cofactor varied | kcat | 0.08 ± 0.01 s⁻¹
